Measurements from different studies.
Each numbered part is a random draw from the data of one study; scales do not carry over between parts.

Study 1
Target: Histone acetyltransferase KAT6A, both winged helices, GST fusion (KAT6A, Homo sapiens, UniProt Q92794, residues 1-181)
Method: protein binding microarray
Form: double-stranded DNA, one strand shown
Matrix: in vitro
Concentration: not given
Notes: 8-mer, flanks averaged, mean of 2 arrays, mostly near background
Reference: not given
Reading: higher = stronger binding
Measurement: E-score
Residues (chain): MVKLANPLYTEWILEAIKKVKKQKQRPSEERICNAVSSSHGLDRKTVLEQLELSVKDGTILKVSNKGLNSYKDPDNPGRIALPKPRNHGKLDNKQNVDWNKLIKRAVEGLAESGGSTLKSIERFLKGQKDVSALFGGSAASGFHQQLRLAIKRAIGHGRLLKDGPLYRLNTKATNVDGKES
Sequence = AGGTGGCA; result = -0.224
Sequence = CATACGTA; result = 0.0928
Sequence = AGAATTTG; result = -0.121
Sequence = AACGCTGG; result = 0.0186
Sequence = AATAACGC; result = 0.0386
Sequence = CCTGTTCG; result = -0.0578
Sequence = CAGCTCGG; result = 0.0418
Sequence = CATATGGG; result = -0.0723
Sequence = AGTGAGAG; result = -0.178
Sequence = GGGAACAC; result = -0.0256
Sequence = AAATGGGC; result = -0.0741
Sequence = TGACCCAA; result = -0.276
Sequence = CGACGTCG; result = 0.143
Sequence = GAAAGACA; result = -0.0586
Sequence = ACTTTTGC; result = -0.0708
Sequence = ATCCCCGC; result = 0.288
Sequence = CAGTAGAA; result = -0.247
Sequence = AGATACGC; result = 0.151
Sequence = AACGTCGA; result = -0.0205
Sequence = CCTGGAAC; result = -0.188
Sequence = AGATAACA; result = -0.143
Sequence = AATCTGTG; result = -0.0516
Sequence = ATAATTGC; result = 0.122
Sequence = GCATCAAA; result = 0.0398
Sequence = GTTATAAC; result = 0.159

Study 2
Target: PABPC1L2, full length, GST fusion (mouse, UniProt A0ABA7IW68)
Method: RNAcompete
Form: RNA
Matrix: in vitro
Concentration: 20 nM
Notes: 7-mer, probes averaged, single round
Reference: mean of 7-mers
Reading: higher = stronger binding
Measurement: 7-mer Z-score
Residues (chain): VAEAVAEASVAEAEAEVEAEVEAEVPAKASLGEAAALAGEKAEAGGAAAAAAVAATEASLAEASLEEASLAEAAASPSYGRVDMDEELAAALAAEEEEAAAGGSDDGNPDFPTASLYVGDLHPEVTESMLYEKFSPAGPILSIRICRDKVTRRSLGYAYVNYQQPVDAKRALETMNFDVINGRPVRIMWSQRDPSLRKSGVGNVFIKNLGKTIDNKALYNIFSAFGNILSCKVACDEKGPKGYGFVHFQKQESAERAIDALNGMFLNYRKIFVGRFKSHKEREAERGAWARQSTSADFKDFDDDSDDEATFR
Sequence = CCGAGGC; result = -0.153
Sequence = UGCGUGG; result = 0.349
Sequence = UUGCGCA; result = -0.0446
Sequence = UACACAA; result = 0.14
Sequence = GGGUUGG; result = 0.0569
Sequence = CCAGGUG; result = -0.079
Sequence = CGUCGAU; result = -0.324
Sequence = UUAUGAC; result = -0.021
Sequence = GAUUUGA; result = -0.266
Sequence = CGUCUUC; result = -0.472
Sequence = UCCUAGA; result = -0.0917
Sequence = GGUCAUA; result = 0.0714
Sequence = CAGUUCC; result = -0.253
Sequence = CAAAGCC; result = -0.157
Sequence = CUGCCCG; result = -0.304
Sequence = ACCACUA; result = -0.146
Sequence = CCAGCGG; result = -0.17
Sequence = CGCAGUC; result = -0.238
Sequence = AAACUGU; result = 1.04
Sequence = UUUUUGU; result = -0.244
Sequence = UCUAUGU; result = -0.347
Sequence = UGUGAGU; result = -0.293
Sequence = GGGCCUG; result = -0.0409
Sequence = AGAGCGA; result = -0.0645
Sequence = AACCACG; result = 0.0805

Study 3
Target: RNA binding protein fox-1 homolog 2, RRM domain, GST-SBP tag (RBFOX2, Homo sapiens, UniProt O43251-10, residues 100-194)
Method: RNA Bind-n-Seq
Form: RNA
Matrix: in vitro
Concentration: 365 nM
Notes: natural RNA segment, single round, ends assumed
Reference: no-protein control
Reading: higher = stronger binding
Measurement: RBNS enrichment (R)
Target sequence (chain): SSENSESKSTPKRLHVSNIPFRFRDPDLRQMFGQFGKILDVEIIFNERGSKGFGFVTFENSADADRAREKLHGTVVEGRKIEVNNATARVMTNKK
Sequence = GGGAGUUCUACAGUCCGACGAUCGGAUAAACAGUCAAACCUUUAUCCUCUAGAAUUUUGGCAAUGUUGACUAAGAAACAGAGUCCAAGCAGAGAAGGUAGGAACCCUCCAUAGCUCUCUGCCCUGAUGUGUGGUGGAAUUCUCGGGUGCCAA; result = 0.29
Sequence = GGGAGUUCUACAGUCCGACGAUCUAGGCUGAGCAGUGCAGCGGCGCCCACAGGUUUACACACAAGUUUGGUUUGGUUUCUUCUGUUCUGCACUUUGGAGUCCCUGGGUAUUCCACAUUACAAGUUGAUGUUAUUGGAAUUCUCGGGUGCCAA; result = 0.27
Sequence = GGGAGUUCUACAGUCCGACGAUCUCAUGAUUUCCUGAAAAAAUAUUUUUUUAAAAGAAAACUAUUUUUUUUAAAUACUAGAGAGACAGUGGACUAGGAAAGCGAGAACUUGCCGCCUUGUCUAGUGACUGUAUUGGAAUUCUCGGGUGCCAA; result = 0.666
Sequence = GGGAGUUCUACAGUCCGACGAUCGAGCAUUGGCUGCUCCUCUAGAGGACCCAGGUUCAAUUCCCAGCGCCCACACAUCAGCUCACAACUGUCUGUAACCCAGUUCUAGGUGAUUUGAUACCCUCACACAGACAUGGAAUUCUCGGGUGCCAA; result = 0.362
Sequence = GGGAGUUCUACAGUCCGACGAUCAACUAUGUGACAACACUUCUCCGCAUAAAGGUUAUGGUGCCCUAGGCAGUGACAUAUGGCCUCAGGCUGGACACCGAGACAGGUGGAAAUACCCUGUCCAUUGGUAGAUGUGGAAUUCUCGGGUGCCAA; result = 0.428
Sequence = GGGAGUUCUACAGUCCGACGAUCAGCCAGUAAACCCAUCCCCCCUGAGCCAGCUGCAGAGAAUGGAGCCCAAACAGAUGUUCUGGGUGCGAGCCCGGGGCUAUAUUGGCGAGGGCGACAUGAAGAUGCACUGCUGGAAUUCUCGGGUGCCAA; result = 0.182
Sequence = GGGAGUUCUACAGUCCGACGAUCGGGCAAGUCUGAUCUCAGCACCCACGAGCCACAUCCUGGGCCAAGCAACAGUAACCCUUGCCAAGCAACGACGGGGUAGAAUUUCUAUGUUCCCAAAUUCAGCAGUAACGUGGAAUUCUCGGGUGCCAA; result = 0.257
Sequence = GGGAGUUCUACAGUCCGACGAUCAAAUAUUAGCACAAAACACUAAAAUAGUGUUAACAAAAGGAGAUAUUGAGCCAGGCAGUGGUGACACGCACACCUUUAAUCCUGGCAUUUGGGAGGUAGAGGCAGUCAGAUGGAAUUCUCGGGUGCCAA; result = 0.685
Sequence = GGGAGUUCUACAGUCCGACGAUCGGCAGGCUUUGACUGACCUCUCAUUCCCUUUGCACUGCUUCAGGUUAGUUCUAGUCCAUAAUGGCCUUUGAGCAGCAAGCUUUCAGAAGAUUAUAUUUGAGGAUUGUAGCUGGAAUUCUCGGGUGCCAA; result = 0.679
Sequence = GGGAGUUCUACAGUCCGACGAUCCUCUACUGCUGUCCUACAAUACAUGAGGUGACUUCCGGCCAUGCUGCCCACUGUUGGCGGCUCUGUGUGUUAAUAGGCUAGGGAGAGGAGUGUCUGCUGCCGCUUGCUUCUGGAAUUCUCGGGUGCCAA; result = 1.99
Sequence = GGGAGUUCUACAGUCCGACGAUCCUGCAAACUCAGUCUCAUGCUCCUGGAAUACCUUCAAUAGCUGCCUUCCUCACCGCAGAUGUUUCUGCCUCUUAAGGAUAGAUCUUCUGCAACAGUCUUGCUGACAAGCUUGGAAUUCUCGGGUGCCAA; result = 0.34
Sequence = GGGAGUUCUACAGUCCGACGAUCCCUAUCGUUCUCCUUCCUUCUUGGCAGGCUUCAGGUUUUGCUGCAGCCCCUGGAGCCAACAUUUUGGUUGUGGGAGGCUGACCUCUUGCCUGCCUCCUUGUGUGGACAGAUGGAAUUCUCGGGUGCCAA; result = 0.305

Study 4
Target: Ras GTPase-activating protein-binding protein 1, full length (G3BP1, Homo sapiens, UniProt Q13283)
Sequence of UniProt Q13283 (whole entry, looked up): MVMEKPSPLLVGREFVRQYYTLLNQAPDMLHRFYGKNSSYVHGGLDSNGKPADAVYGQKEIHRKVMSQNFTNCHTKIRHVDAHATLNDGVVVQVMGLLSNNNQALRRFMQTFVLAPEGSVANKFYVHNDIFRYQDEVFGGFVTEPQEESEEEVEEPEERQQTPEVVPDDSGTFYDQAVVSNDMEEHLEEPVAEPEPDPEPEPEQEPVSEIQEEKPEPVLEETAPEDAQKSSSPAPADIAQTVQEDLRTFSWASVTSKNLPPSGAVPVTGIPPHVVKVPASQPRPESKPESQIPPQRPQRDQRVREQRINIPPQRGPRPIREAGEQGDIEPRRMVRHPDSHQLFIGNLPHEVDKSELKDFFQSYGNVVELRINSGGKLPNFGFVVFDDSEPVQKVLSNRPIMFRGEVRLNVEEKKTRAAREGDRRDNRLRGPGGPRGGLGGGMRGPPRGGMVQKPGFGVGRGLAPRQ
Method: RNA Bind-n-Seq
Form: RNA
Matrix: in vitro
Concentration: 200 nM
Notes: whole 134-nt RNA, ends assumed
Added: 150 mM KCl
Reference: input library
Reading: higher = stronger binding
Measurement: log2 enrichment
Sequence = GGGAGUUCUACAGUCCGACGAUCAAGUCCUGUGCUACACAUCGUAUGUACCGAAUCGGGGUUUUUGGGGUGGGGAGGGGAAAGUAUUAUGUUACGCCGUUCGGAUCUGCACUUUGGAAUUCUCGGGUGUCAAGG; result = 0.98
Sequence = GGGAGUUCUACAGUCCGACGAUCUCCUCAAGUCCUGUGCUACACAUCGUAUGUACCGAAUCGGGAGGAGGGAGGAAAGUAUUAUGUUACGCCGUUCGGAUCUGCACUUCCAGCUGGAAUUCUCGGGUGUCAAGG; result = -0.239
Sequence = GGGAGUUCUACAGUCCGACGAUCUCCUGUGCUACACAUCGUAUGUACCGAAUCGGAAAAAAGGAAAAAAGGGAAAAAAGGGGAAAGUAUUAUGUUACGCCGUUCGGAUCUGCAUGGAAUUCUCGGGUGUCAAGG; result = -0.812
Sequence = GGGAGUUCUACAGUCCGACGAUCUAACUUUAGAGGAGGAUCUGAUGGAUAUGGCAGUGGACGUGGAUUUGGGGAUGGCUACAAUGGGUAUGGAGGAGGACCUGGAGGUGGCAAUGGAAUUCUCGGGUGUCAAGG; result = 0.315
Sequence = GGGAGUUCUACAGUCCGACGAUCUCAAGUCCUGUGCUACACAUCGUAUGUACCGAAUCGGUGGUUUUUUUGGUUUGGAAAGUAUUAUGUUACGCCGUUCGGAUCUGCACUUCCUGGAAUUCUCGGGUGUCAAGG; result = -0.977
Sequence = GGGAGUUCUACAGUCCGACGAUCAGCAUGCAGGUGGGCAUCUUUGGGAAGUGGGGCAAGGGGGGGAUAGGGAGGGGGGUAACACUUUGGGAACAGGUGGUCCCAGGUCGUUUCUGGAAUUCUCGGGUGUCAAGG; result = 1.38
Sequence = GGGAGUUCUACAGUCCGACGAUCGCAGGAAGUAAAAACAAAUGGAAAUGCUUCGGAUAGUGGCCGGGGUGGGGGUUGCUAAGGAAAGGGUGGGAUGGGAGUGGGUAAAGAGUUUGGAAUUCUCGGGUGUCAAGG; result = 0.879
Sequence = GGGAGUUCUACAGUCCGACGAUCUCAAGUCCUGUGCUACACAUCGUAUGUACCGAAUCGGGGCCGGGGCCGGGGCCGGAAAGUAUUAUGUUACGCCGUUCGGAUCUGCACUUCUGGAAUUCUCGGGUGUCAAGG; result = -1.22
Sequence = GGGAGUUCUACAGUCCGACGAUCAAGUCCUGUGCUACACAUCGUAUGUACCGAAUCGGGAGGGAAAAAAAGGGAAAGGGAAAGUAUUAUGUUACGCCGUUCGGAUCUGCACUUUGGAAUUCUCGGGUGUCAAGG; result = 0.0917
Sequence = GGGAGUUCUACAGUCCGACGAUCAAGUCCUGUGCUACACAUCGUAUGUACCGAAUCGGGAAAGGGUUUGGGAAAAAGGGAAAGUAUUAUGUUACGCCGUUCGGAUCUGCACUUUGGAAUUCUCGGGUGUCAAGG; result = -0.223
